Results pooled from the literature.
Every numbered part comes from another study and shows a few of its results, in no order.

Block 1
Target: RING finger protein unkempt homolog, zinc fingers 1-6, GST-SBP tag (UNK, Homo sapiens, UniProt Q9C0B0, residues 30-357)
Method: RNA Bind-n-Seq
Form: RNA
Sample: in vitro
Tested at: not given
Notes: RNA with constant flanks, human-mouse chimeric sites, ends assumed
Baseline: input RNA pool
Direction: higher = stronger binding
Construct (chain): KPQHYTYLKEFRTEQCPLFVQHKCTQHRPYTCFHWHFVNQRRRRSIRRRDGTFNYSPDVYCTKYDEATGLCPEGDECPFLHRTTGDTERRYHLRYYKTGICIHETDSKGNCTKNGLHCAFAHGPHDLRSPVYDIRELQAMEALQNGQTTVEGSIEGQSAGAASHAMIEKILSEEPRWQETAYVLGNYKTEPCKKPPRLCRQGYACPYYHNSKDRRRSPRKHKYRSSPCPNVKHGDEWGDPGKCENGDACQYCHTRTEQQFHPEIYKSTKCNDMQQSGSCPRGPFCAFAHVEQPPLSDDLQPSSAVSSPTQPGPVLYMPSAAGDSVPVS
Sequence | bound/input enrichment [ratio]
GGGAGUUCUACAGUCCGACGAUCCGCAGAAGGUUAAAGGGUGAGAGUGGGGUGGAAGACUGUGUCAUGGCUCUGGAGACACUGUUCAGUGUCCUGCUUUCUCUGUGCAGACUGAUGGCCCCCUACACACCCUUUCUGACUGAGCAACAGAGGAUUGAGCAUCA | 0.0613
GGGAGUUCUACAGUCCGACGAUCGCAAAGGAUGAUGAGGCGGCAGCUGUUGCCCUUUCCUCUCUCGUUCAUGCUUUGGAUGAGUUAAACAUGGUGGCCAUCGUCCGAUAUGCUUAUGACAAAAGAUCUAAUCCUCAAGUCGGUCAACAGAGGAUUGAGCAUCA | 0.361
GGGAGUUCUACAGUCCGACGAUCUCUUAACUUAUUCAUUUAACUUAUUUUUAUAGCUAGAUAAAUAUUGUUAGUCUUAGUGAGUAGUUCACAUUUUUUGAGAAGCAUGCCCUCCCUGUCCAUUUGUCUUAUAACAUGACCCAGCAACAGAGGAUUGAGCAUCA | 16
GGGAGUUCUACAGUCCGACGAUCUGACAAGGGCACUGCAGAGCCAUGCCUUUCUUGGACAUACAGAAAAAGUUCGGCCUUAGCCUGGACCGGCACUUUAUGUUCCUAAGCGCAGAACAGCCCUAUAAGAACGCCGCUCGGUGCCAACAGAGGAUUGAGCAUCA | 0.0673
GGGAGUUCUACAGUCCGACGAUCGAGUCGAGCAAACUUGAAACAAUUCGUUUUACAAAAACCUCAGUGUUCACUUGCUUGGCGAUAGCAUUGGGGUUUUAUAUAGAUUCUAAGGAGAACUGACGAUGAUGCUGCCGCUGCUGCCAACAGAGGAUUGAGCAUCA | 0.35
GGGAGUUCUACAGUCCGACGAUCCAGCCUCAGAGCCCAGACUUCCUGGAUAUUACCAACCCCAAAGCCGUAUUAGAAAAUGCACUUAGGAACUUCGCCUGUCUGACGACUGGAGAUGUGAUUGCUAUCAACUACAAUGAGAAGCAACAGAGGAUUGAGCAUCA | 1.28
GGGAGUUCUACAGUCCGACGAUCGCUGAAAAUGAAGAAGAGGCAGCUGAUGUCUGGUACAACCUGGGGCAUGUAGCUGUGGGAAUAGGAGAUACAAACUUGGCCCACCAAUGCUUCAGGCUGGCCCUGGUCCACAACAACCACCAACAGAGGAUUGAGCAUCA | 0.269
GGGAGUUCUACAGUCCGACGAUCCCCACGCCUCCUCUCCCACAGGCCCAAGAUAUAACCCACCAGUGCCUUCUGUCUGCUUGUCAGCUCUGUCAAUCACGCCUGUCCUCUCACGCCCACACCAAGUGCCCAAAGUGGGGAGGGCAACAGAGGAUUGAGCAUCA | 0.658
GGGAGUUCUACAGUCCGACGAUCUACUCAACUUUCUUGCCACGUUUUGAAUUCCAAGACAUUAUUCCUCCAGAUGACUUCCUAACGAGUGAUGAAGAGCAAGAUUUGGUUUUAUUUGGAACUAUGAGAGGUCAUGUGGUUGGACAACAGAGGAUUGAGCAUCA | 0.147
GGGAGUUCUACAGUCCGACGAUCAUAGAUGAAAUUGAUGUGGACCAGGAAGGAAUUGCUGAAAUGAUCCUGGAUGAAAAUGCUAUUGCUCAAGUUCCACGCCCUGGAACGUCUUUGAAGCUCCCUGGCACUAACCAAACAGGACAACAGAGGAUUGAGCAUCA | 0.312
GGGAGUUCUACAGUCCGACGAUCAAAGAGUGGAUAGAGUGUGCACACGGGAUCGGUGGGACCCGGGCGAAAAAGGAGUGCAAGAUAGAGUAUGAUGAUUUCGAAGAGUGCUUGCUUCGGCACAAAACGAUGAGGCGAAUGCAUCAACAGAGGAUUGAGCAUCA | 0.794

Block 2
Target: Sal-like protein 4, full length isoform B (SALL4, Homo sapiens, UniProt Q9UJQ4-2, residues 1-616)
Method: universal PBM
Form: double-stranded DNA, one strand shown
Sample: in vitro
Tested at: not given
Notes: 8-mer, flanks averaged, mean of replicates
Direction: higher = stronger binding
Residues (chain): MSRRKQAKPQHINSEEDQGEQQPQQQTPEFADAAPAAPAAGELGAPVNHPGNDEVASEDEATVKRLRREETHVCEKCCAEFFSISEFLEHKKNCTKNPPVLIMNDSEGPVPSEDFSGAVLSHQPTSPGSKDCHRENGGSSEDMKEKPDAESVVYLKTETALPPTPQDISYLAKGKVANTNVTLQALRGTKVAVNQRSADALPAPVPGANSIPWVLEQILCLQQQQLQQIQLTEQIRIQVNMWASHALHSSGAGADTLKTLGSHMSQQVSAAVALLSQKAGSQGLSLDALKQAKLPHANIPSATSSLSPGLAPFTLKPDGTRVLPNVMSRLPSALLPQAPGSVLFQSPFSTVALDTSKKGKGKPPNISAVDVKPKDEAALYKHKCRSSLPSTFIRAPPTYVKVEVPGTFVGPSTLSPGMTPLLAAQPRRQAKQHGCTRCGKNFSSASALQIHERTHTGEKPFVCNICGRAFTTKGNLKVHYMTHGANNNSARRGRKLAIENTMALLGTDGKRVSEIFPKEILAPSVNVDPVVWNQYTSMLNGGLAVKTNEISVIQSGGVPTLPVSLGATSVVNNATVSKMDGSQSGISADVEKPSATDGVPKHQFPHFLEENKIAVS
Sequence | E-score
CGTGAGAG | -0.114
ACCTGTCA | -0.0933
GAAACGGC | -0.124
GTTATCAA | 0.164
AACATCGT | -0.0465
CATAGCGA | 0.0189
ACTCTAGG | -0.174
AGGAGATG | 0.0797
AAAACACT | 0.182
ACGGAAAC | -0.0708
ACCATTAT | 0.112
CGGGTTGC | -0.232
TCCTTTCA | 0.0604
CGAATTCG | -0.119
ACGTCGCC | -0.201
CGGGCCGC | -0.448
AAGTTGCC | -0.26
TGAAAACA | 0.247
AGGCTGAG | -0.184
ATCTGCAA | 0.0648
GATAGGCC | -0.228
AAATGCAT | 0.187
AGGCGCAT | -0.128
ATTTCCGC | 0.0267
CTATCAGA | -0.0667

Block 3
Target: Histone acetyltransferase KAT6A, winged helix 2, GST fusion (KAT6A, Homo sapiens, UniProt Q92794, residues 85-181)
Method: protein binding microarray
Form: double-stranded DNA, one strand shown
Sample: in vitro
Tested at: not given
Notes: 8-mer, flanks averaged, mean of 2 arrays, mostly near background
Baseline: not given
Direction: higher = stronger binding
Construct (chain): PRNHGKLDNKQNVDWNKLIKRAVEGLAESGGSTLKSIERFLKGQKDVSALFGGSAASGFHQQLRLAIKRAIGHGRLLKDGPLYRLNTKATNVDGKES
Sequence | E-score
AACTTCGG | -0.104
CCCCTCGG | 0.293
CACCGGGC | 0.0683
CGTCGCAC | 0.154
ACTACTCA | -0.0576
ATCTGGGA | -0.098
AAGATTAA | 0.237
AAGACTGA | -0.0713
CTATCCTC | -0.0556
ATCTTCAA | -0.0919
CGCCTCAG | 0.0169
CAGTTCGC | 0.0292
TCAAGCAA | 0.0784
AGGAAGAG | 0.0132
GAACGGGA | 0.0905
AATCACGC | 0.0134
AACCTATG | -0.0297
CAAGGCCG | -0.0209

Block 4
Target: RNA binding protein fox-1 homolog 2, RRM domain, GST-SBP tag (RBFOX2, Homo sapiens, UniProt O43251-10, residues 100-194)
Method: RNA Bind-n-Seq
Form: RNA
Sample: in vitro
Tested at: 365 nM
Notes: natural RNA segment, single round, ends assumed
Baseline: no-protein control
Direction: higher = stronger binding
Target sequence (chain): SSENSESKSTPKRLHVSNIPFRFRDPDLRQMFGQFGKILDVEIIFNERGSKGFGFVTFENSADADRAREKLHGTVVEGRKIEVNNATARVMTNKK
Sequence | RBNS enrichment (R)
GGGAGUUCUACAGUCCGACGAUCAAGUAUUUGUAUUUAUUUAUGAUUAUCAAUUUUACAUAACAUUAAUAUUAUAUCAGACCUCCUUAAGAAAAUGAGUAUGGAUGUUCACAGUAUGUUUGAUUUUUAUCCACUGGAAUUCUCGGGUGCCAA | 0.582
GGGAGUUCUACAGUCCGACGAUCAGGUGGGUGGGGCCCCUCUGUAAAUACGGCCCCAGGGUGGUGAGAGAGUCCCAUGCCACCCGUCCCCUUGUGACCUCCCCCCUCUGACCUCCAGCUGACCAUGCAUGCCAUGGAAUUCUCGGGUGCCAA | 1.34
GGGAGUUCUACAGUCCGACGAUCCUUUUCUGCCUUGAGGGGCAGUUUUGGGAGAUGAAAGGGAUUAGUGUGGACCCAGUCUAGGCACCCCAGUACUUCCCUUCACCUUGUAGAAAAUGGUAAUGAAAGGGCAUUGGAAUUCUCGGGUGCCAA | 0.59
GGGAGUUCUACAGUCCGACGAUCUUCUCAGAGAGCCAAAGCUGAAUUCUCAGAGCUCCAAGGCCCUCCACAAGAUGCUAGAGGAAGCUCAGGGAAAAACAGGACGUAGGCGGAGCACAUCUGUGGUCAAUGGGUGGAAUUCUCGGGUGCCAA | 0.273
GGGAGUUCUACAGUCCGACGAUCGGGCCGCGAGAUCUAGCAUCUCUGAAAUCCUGGCUGUCGAGGCUUUGAAGCAUGUGUUACCUGGUUAAGCUUGUUUUCUCUUGCUUUAGGCAAAUAAAAGUUUAAAAAUCUGGAAUUCUCGGGUGCCAA | 2.58
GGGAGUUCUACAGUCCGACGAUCGAGACACGCCUUUUUACUAGUUCAUUUGCAUUUAAAUCAGUGAUCCUGUUCUGUGGCAUUCAUGAAAAACAAGUUGAAGAAUUUGUUUAUCUGGAAUUGUUUCUAAAUAUUGGAAUUCUCGGGUGCCAA | 0.448
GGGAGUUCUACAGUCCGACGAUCGGGCUGGGGGUUGGACGGGAUUGAGGAAGGUCCGCACAGCCUGUCUCUGCUCAGUUGCAAUAAACGUGACAUCUUGGGAGCGUUCCCCAGAGUUUGUCUGCUUCUAGAACUGGAAUUCUCGGGUGCCAA | 0.483
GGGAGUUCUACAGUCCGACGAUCUCUCAUUGUUUUUCUCUAGCUACCCUACUCAUCACUGGCUCCCUCAGCACCAGGCCUGUAUAACGUGGUUCUCACGUUACCCUGGCAGCAUACAGGAUGGGGAGUCUGGUUGGAAUUCUCGGGUGCCAA | 0.613
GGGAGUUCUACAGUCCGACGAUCUUUAUGCUGAAUACAUUUGUAAAUACUCAGUUUUAUACUGUAUGUAUAUGAUUGCUACUCUAAAGGUUUGGAUAUAUGUAUUGUAAUUAGAAUUGUUGGCAUGAUGACAUUGGAAUUCUCGGGUGCCAA | 3.92
